Published values gathered from unrelated publications.
Parts stem from different laboratories: compare values within a part only.

Study 1
Target: RING finger protein unkempt homolog, zinc fingers 1-6, SBP tag (UNK, Homo sapiens, UniProt Q9C0B0, residues 30-357)
UniProt Q9C0B0, sequence (30-357, looked up): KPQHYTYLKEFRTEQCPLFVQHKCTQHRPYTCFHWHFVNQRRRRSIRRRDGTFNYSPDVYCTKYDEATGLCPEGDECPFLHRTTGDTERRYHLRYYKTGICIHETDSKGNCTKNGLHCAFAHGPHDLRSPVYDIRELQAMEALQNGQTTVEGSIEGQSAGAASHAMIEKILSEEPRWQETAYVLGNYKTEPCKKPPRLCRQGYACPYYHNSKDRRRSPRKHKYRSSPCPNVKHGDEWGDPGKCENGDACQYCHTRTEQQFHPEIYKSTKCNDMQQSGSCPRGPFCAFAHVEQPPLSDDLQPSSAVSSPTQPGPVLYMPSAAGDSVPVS
Technique: RNA Bind-n-Seq
Molecule type: RNA
Matrix: in vitro
Tested at: 100 nM
Setting: RNA with constant flanks, vertebrate orthologous sites, ends assumed
Reference: input RNA pool
Reading: higher = stronger binding
Shared flanks, not repeated: GGGAGUUCUACAGUCCGACGAUC … CAACAGAGGAUUGAGCAUCA
| Strand | bound/input enrichment |
| --- | --- |
| CUGUUGUUAAGCACUGUGUUCCAGACCGUGUCUGACUUUAGUGUAACCUAGGAGAUUUUAUAGUUUUAUUUUAAUGAAAUCCUGCUUGACGCAGAACAGCGGGGAGAGCAGUGUCUUCUA | 2.04 ratio |
| AGCUAGUUCUUAAGAACCAACGUUUGUAAAAGAUGUAGGCAAAAAGUUUACAGCCUAAUCUAGUUUAUGAAAACAACUUGUGCUAGAAUACUUUUCUUAAAAAAGUAUUUUUGAAUACCA | 0.399 ratio |
| GAACCCCAGUUUGUAUGUACAUUAUUCACAUUCCUCUGUUGUAUUUGGGAAAAAAGACAUUUUAGCCUUUUUAAGGUUGUUAAUUUAAUUUCAUGUUAUUUGGUUGCAUGAAGUUGCCCU | 0.347 ratio |
| GUGGGGAUCGGGGUGGGGUGGGAAGAAGAUGUAUGGACGUUACUGGCAUUUUUAAGUGUUAAGAGUUUUUUGUGUUGUUGUUGUUUUUUUUCCUCUCGUUUUGUUCUUCCCCUUUAAUUA | 1.14 ratio |
| UUCCAUUUAACCGUUCAACCAGUUGUCUCCCUGGCCUUCUUUUUCUUGCUGCCCCGAGGUUGGAUUCUUUUAUUUUUCCUUACUGGGUUUUCCACGUGAGCAUGCUGUUAGUUCUAGCCA | 0.671 ratio |
| CCUUCUGUAGAGAACAAUUUUCACUGAAGCCAUUGGCAAAUUCCCCCCACCAGACUUUUCUUUGGAGCUCUUUCAUUUCGUACAAUCUUGCUGUGUUGGUCAUUGUUAGCCCUGAAUCCA | 0.823 ratio |
| UUGUGGGGGUGGGGGUGGGGAAGGGAAGAUGUAUGGAUGUUACUGGCAUUUUUAAGUGUUUAGAAUCUUUUUUUUUCCUCCUGUUUUUCUGUUUUGCAUUUUCUCUUUAAUCAGAUGCAC | 2.98 ratio |
| AUAUGUGGGGUAGCCUUGGCCCCUGCCUUGGCCUUACCUCUCCUCCCUGUCACCUGUCCCUAGUUAUUUUUUUUUUAACCACCACGUGAUUAUGGUCGGUGCUGCCUUUUCCCGACCUGC | 9.31 ratio |
| GUAUACCCCUCUCCCUGUGAUAUUUAAAAUAUGCACAGUCCUAUUUUUUCUAAAUGAUUCUAGUAAUUUUCUAGCAAUAUCUAUCUCUUACCUGUUAUUUAUCAAUUUUCCCCUUAAGUG | 5.99 ratio |
| GCACUGCUUGUGCAGAUUCCACAACACUGAAUGCAAAGUAGCAAUUUUCAUAGUCACAGUAAAGUAGUAUUAGGGUAACAUGCCAUGGUUUUACUCAUGUGCAGAUUGACAAUGUACAAU | 1.54 ratio |
| AGUUUGUUUCUAAUUUCAAGCAAAAAAAAUCUUAUUGUACUUGAAUGUGUCCUGUUUUGUUAGCACACCUAGACUUGCUGUAACUGUACUCAUGUCCCAGUAUGUACGUUCUUUCUAUGA | 0.534 ratio |

Study 2
Target: Histone acetyltransferase KAT6A, winged helix 1, GST fusion (KAT6A, Homo sapiens, UniProt Q92794, residues 1-85)
Technique: protein binding microarray
Molecule type: double-stranded DNA, one strand shown
Matrix: in vitro
Tested at: not given
Setting: 8-mer, flanks averaged, mean of 2 arrays, mostly near background
Reference: not given
Reading: higher = stronger binding
Construct (chain): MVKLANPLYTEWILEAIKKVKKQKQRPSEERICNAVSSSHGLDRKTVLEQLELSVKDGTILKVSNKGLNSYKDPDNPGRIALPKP
| Strand | E-score |
| --- | --- |
| AGCATCAG | -0.0949 |
| CGCAGTTC | 0.247 |
| GCTCGCAA | -0.116 |
| CAATCATC | -0.17 |
| ACCGGGCT | 0.231 |
| ACACACAG | -0.147 |
| CCGTTCCA | 0.179 |
| ATGGGGCG | -0.0767 |
| AGCTGCAG | -0.181 |
| ATGTCACG | 0.0406 |
| ACGACCCC | 0.0823 |
| CGTATTCC | 0.0292 |
| CATCCTTA | -0.203 |
| TATTTGCA | -0.319 |
| CACCGGTC | 0.187 |
| AGTTCTGA | -0.216 |
| GCGTTCTA | 0.101 |
| AACCCGTT | 0.267 |
| GCGGGACA | 0.352 |
| CAGTCGAC | -0.0177 |
| CTGCCGAC | 0.21 |
| GACGGGTA | 0.329 |
| AGATACGC | 0.262 |
| CTTTCGGA | -0.0508 |
| CAACTACG | 0.00479 |

Study 3
Target: Sal-like protein 4, full length isoform B (SALL4, Homo sapiens, UniProt Q9UJQ4-2, residues 1-616)
Technique: universal PBM
Molecule type: double-stranded DNA, one strand shown
Matrix: in vitro
Tested at: not given
Setting: 8-mer, flanks averaged, mean of replicates
Reading: higher = stronger binding
| Strand | E-score |
| --- | --- |
| CTGAAGTC | -0.0757 |
| ACGCAAAA | 0.0173 |
| AGACGTTC | -0.0673 |
| GCGTAAGC | -0.183 |
| CGTCTGTC | -0.238 |
| AGCACGGC | -0.233 |
| CCCGTGCG | -0.307 |
| CCGACCAA | -0.202 |
| CGAACTGC | -0.0725 |
| GCACCGAA | -0.116 |
| CGTCGTAG | -0.127 |
| CGGAAGAC | -0.238 |
| GATGACGA | 0.103 |
| AATAAAAT | 0.431 |
| ATTTAGAA | 0.199 |
| GCGGGCCC | -0.301 |
| AAGTGGTA | 0.0847 |
| CTTGAGAA | 0.13 |
| AGTCGGTA | -0.105 |
| ACCTCCGC | -0.247 |
| ACCCATCG | -0.102 |
| AGAGTCTG | -0.234 |

Study 4
Target: RNA binding protein fox-1 homolog 2, RRM domain, GST-SBP tag (RBFOX2, Homo sapiens, UniProt O43251-10, residues 100-194)
Technique: RNA Bind-n-Seq
Molecule type: RNA
Matrix: in vitro
Tested at: 365 nM
Setting: natural RNA segment, single round, ends assumed
Reference: no-protein control
Reading: higher = stronger binding
Shared flanks, not repeated: GGGAGUUCUACAGUCCGACGAUC … UGGAAUUCUCGGGUGCCAA
Residues (chain): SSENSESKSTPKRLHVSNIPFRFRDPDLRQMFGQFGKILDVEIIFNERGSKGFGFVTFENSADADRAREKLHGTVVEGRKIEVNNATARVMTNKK
| Strand | RBNS enrichment (R) |
| --- | --- |
| UAAAACUUGGUUUAUUCUAAUUUCUGUAUCAUAUCAUCUGAGGUUUACGUGGUAACUAGUCUUAUAACAUGUAUGUAUCUUUUUUUUGUUGUUCAUCUAAAGCUUUUUAA | 1.2 |
| UAUCUCAUUAUUUUGAAAGAUUUAUAUAAUGAACUCUGGCUAUCUGACAAUAAAAUGGAUGAAAAAGAAGCAGCUGUUGACGUUGACUCUGUCCCCCAUGAAGCCUCCUG | 0.476 |
| CAUUCACAGGGAAACCUCUUUCCUUCCUAUAAAGGAAAGAGGUUGAAUUGACUCACAUUUCCACAUGGCUUGGGAGGCCUCAGGAAACUUACAAUCAUGGCGGAGGGUGA | 0.351 |
| GUGGCACGCCUUGUGCUGACGACCCCCACUGGGCUACAGUCACAGGAGAAUUGAGACUUGGAAAAGGCUUGGGUACAAUUAAGAAAAACCCUACAUCCCACCCUCCUCUU | 0.204 |
| UUUUUUAUACUAAAAAUGUAGAAUAAAGACUAUUUUGAAGAUUUGAAUAAAGUGAUGAAGUUGCAUUACACCUCACGCCAGCAUUCUUUACUUAGCAUGUGCUCAGAUGG | 3.28 |
| GGAGUGGGUGGCCCCAUCACUAUUGGGACCAUCGCGUCCCUGCACAGCCCACACCCGGGGGCCCAGAGUCCUGGGCUGGACGCCACCCUUCUCACCCCGAGCUUGCCUCC | 0.204 |
| AACAGAUAGGACAGGACAGGGCUCUGGGUGCUGUCCAGGGACUAAGGAAUACAGCUAAAUAAACCAAGGGGGCUAGGCCCAGUCAGCCAUUGUACAGAGGCCCAGAUUUC | 0.532 |
| CUCCAUCUUUUGGUGCAUUGGCCAUAUUACUGUGCCAAUAGUGUCUUAACUCAUGUCCCAUCUAUCCUCAGCUGGCCUUGGACCUACAUAGGAGUUGAAUGGGGAGGGGC | 0.336 |
| GGGCCCCCAACAAUAGAUGGUAGCGUAAGUCUGGAGCAGCGGUGUUUCACCACCAAAUGCCUUUCCAGGCUGCCCUUCCAACACUCAGGAGAGCAUCCAGAUCCCUGGGC | 0.192 |
| CUCUUGUUCGCAACUCAGAUCACACUCCAAUUGUGGUGACAGACUCUUCCAUAUCAGGCUGGUUUUGCUUUGUUCCGCCUUUACACAAACUCAAGUGGAGCUGAACUUUC | 0.418 |
| UUAACUUGUUUCAAUGCCUACUUUUAAUGGAGGUUAUUAAACACUUUAACCUCCCUUCUAGCCCACCACCAACCAGAGAUAGUGGGAAAGAAAGGAUACAGGGGAAGUGG | 0.272 |
| UCCCUGUAUAUUGCAUGAAUGAGAGAUUUCCCAUAUUUCCAUCAGAGUAAUAAAUAUACUUGCUUUAAUUCUUAAGCAUAAGUAAACAUGAUAUAAAAAUAUAUGCUGAA | 9.53 |

Some of these lines once more (study 1):
| Strand | bound/input enrichment |
| --- | --- |
| AGCUAGUUCUUAAGAACCAACGUUUGUAAAAGAUGUAGGCAAAAAGUUUACAGCCUAAUCUAGUUUAUGAAAACAACUUGUGCUAGAAUACUUUUCUUAAAAAAGUAUUUUUGAAUACCA | 0.399 ratio |
| UUCCAUUUAACCGUUCAACCAGUUGUCUCCCUGGCCUUCUUUUUCUUGCUGCCCCGAGGUUGGAUUCUUUUAUUUUUCCUUACUGGGUUUUCCACGUGAGCAUGCUGUUAGUUCUAGCCA | 0.671 ratio |
| GUGGGGAUCGGGGUGGGGUGGGAAGAAGAUGUAUGGACGUUACUGGCAUUUUUAAGUGUUAAGAGUUUUUUGUGUUGUUGUUGUUUUUUUUCCUCUCGUUUUGUUCUUCCCCUUUAAUUA | 1.14 ratio |
| UUGUGGGGGUGGGGGUGGGGAAGGGAAGAUGUAUGGAUGUUACUGGCAUUUUUAAGUGUUUAGAAUCUUUUUUUUUCCUCCUGUUUUUCUGUUUUGCAUUUUCUCUUUAAUCAGAUGCAC | 2.98 ratio |
| AUAUGUGGGGUAGCCUUGGCCCCUGCCUUGGCCUUACCUCUCCUCCCUGUCACCUGUCCCUAGUUAUUUUUUUUUUAACCACCACGUGAUUAUGGUCGGUGCUGCCUUUUCCCGACCUGC | 9.31 ratio |
| GAACCCCAGUUUGUAUGUACAUUAUUCACAUUCCUCUGUUGUAUUUGGGAAAAAAGACAUUUUAGCCUUUUUAAGGUUGUUAAUUUAAUUUCAUGUUAUUUGGUUGCAUGAAGUUGCCCU | 0.347 ratio |
| GCACUGCUUGUGCAGAUUCCACAACACUGAAUGCAAAGUAGCAAUUUUCAUAGUCACAGUAAAGUAGUAUUAGGGUAACAUGCCAUGGUUUUACUCAUGUGCAGAUUGACAAUGUACAAU | 1.54 ratio |
| CUGUUGUUAAGCACUGUGUUCCAGACCGUGUCUGACUUUAGUGUAACCUAGGAGAUUUUAUAGUUUUAUUUUAAUGAAAUCCUGCUUGACGCAGAACAGCGGGGAGAGCAGUGUCUUCUA | 2.04 ratio |
| GUAUACCCCUCUCCCUGUGAUAUUUAAAAUAUGCACAGUCCUAUUUUUUCUAAAUGAUUCUAGUAAUUUUCUAGCAAUAUCUAUCUCUUACCUGUUAUUUAUCAAUUUUCCCCUUAAGUG | 5.99 ratio |
